{"data": "Measured values gathered from unrelated publications", "note": "Parts stem from different laboratories: compare values within a part only. Changes are numbered by the printed parent chain.", "sequence of UniProt Q9XED8 (whole entry, looked up)": "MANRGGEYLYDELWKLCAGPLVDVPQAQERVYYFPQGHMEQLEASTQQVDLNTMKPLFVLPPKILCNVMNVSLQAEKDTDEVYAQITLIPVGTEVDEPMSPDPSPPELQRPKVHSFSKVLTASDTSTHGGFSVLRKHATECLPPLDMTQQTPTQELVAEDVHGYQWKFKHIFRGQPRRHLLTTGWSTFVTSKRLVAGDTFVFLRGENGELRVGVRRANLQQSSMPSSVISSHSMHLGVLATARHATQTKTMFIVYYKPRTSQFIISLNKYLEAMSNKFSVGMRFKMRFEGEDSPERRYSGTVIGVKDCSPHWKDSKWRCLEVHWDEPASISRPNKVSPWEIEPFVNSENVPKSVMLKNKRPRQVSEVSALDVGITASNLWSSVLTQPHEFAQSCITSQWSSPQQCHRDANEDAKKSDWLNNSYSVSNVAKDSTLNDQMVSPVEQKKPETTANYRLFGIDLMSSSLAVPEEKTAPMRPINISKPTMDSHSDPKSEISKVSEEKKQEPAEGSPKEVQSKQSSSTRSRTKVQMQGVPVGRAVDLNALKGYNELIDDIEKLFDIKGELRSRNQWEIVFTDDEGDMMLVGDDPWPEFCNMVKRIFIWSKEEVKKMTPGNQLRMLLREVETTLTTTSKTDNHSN", "sequence of UniProt Q8L7G0 (whole entry, looked up)": "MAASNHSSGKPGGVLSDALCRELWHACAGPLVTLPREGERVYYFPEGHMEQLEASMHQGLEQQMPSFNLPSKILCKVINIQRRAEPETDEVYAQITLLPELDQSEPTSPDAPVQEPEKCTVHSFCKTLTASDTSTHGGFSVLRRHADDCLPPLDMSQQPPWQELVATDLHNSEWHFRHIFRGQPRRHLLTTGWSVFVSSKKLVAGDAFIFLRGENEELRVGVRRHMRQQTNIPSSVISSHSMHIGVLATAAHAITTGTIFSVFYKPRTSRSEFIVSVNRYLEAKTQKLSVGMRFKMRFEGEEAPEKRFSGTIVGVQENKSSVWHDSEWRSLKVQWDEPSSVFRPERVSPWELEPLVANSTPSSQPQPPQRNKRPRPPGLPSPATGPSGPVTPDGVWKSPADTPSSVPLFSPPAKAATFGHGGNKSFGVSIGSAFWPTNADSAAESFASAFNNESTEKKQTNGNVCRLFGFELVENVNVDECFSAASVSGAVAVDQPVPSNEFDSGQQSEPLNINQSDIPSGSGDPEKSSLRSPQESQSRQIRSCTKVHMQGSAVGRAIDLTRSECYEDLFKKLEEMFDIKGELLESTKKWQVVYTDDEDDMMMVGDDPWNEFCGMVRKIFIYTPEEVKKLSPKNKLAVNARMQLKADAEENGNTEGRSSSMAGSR", "sequence of UniProt Q38825 (whole entry, looked up)": "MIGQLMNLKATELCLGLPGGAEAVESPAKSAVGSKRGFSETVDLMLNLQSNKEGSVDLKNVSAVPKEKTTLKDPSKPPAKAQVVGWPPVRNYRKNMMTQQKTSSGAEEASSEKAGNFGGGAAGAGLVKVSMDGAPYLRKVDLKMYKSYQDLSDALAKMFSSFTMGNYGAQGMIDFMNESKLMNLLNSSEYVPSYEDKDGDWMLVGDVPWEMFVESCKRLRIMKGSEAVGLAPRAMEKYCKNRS", "sequence of UniProt Q9XFM0 (whole entry, looked up)": "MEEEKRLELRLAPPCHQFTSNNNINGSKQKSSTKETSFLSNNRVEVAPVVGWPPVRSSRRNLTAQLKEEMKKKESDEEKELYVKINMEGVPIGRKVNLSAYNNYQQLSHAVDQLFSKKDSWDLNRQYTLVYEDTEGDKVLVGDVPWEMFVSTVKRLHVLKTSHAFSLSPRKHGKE", "sequence of UniProt P33078 (whole entry, looked up)": "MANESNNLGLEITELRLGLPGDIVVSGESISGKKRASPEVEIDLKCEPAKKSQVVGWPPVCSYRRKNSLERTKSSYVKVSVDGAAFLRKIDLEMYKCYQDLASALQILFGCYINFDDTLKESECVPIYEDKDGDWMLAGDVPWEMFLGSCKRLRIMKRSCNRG", "sequence of UniProt Q38830 (whole entry, looked up)": "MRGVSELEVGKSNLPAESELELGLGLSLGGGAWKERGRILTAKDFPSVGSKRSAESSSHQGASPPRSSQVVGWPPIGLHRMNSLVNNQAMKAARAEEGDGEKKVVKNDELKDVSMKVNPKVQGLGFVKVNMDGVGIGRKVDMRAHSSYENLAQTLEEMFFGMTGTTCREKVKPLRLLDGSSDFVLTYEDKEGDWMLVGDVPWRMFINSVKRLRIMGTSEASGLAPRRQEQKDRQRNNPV"}
{"data": "Series 1", "target": "CCND3, cyclin fold, Cln2 fusion (human)", "technique": "yeast growth competition, sequencing", "sample": "yeast", "setting": "weak parent motif", "baseline": "not given", "reading": "higher = stronger binding", "starting sequence": "viral docking peptide; TSVRRALFTGGSD; partner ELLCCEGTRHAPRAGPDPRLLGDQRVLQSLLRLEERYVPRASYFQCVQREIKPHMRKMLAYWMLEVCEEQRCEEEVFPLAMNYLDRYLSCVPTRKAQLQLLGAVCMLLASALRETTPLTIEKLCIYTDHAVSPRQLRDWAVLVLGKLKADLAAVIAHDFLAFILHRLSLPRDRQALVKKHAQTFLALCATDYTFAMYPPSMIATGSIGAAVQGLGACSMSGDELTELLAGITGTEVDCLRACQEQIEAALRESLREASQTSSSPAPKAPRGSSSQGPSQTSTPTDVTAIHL"}
{"Change": "TSVRGALFTGGSD [R5G]", "normalised enrichment score": 0.0804}
{"Change": "TSVRRAVFTGGSD [L7V]", "normalised enrichment score": 0.326}
{"Change": "TSVTRALFTGGSD [R4T]", "normalised enrichment score": 0.0619}
{"Change": "TSVRRKLFTGGSD [A6K]", "normalised enrichment score": 0.116}
{"Change": "TSVRRALFTGCSD [G11C]", "normalised enrichment score": 0.408}
{"Change": "TSVRRFLFTGGSD [A6F]", "normalised enrichment score": -0.103}
{"Change": "TSVNRALFTGGSD [R4N]", "normalised enrichment score": 0.0323}
{"Change": "TSVRDALFTGGSD [R5D]", "normalised enrichment score": -0.266}
{"Change": "TSVRRQLFTGGSD [A6Q]", "normalised enrichment score": 0.206}
{"Change": "TSVRRALFTGGSA [D13A]", "normalised enrichment score": 0.121}
{"Change": "TSVRQALFTGGSD [R5Q]", "normalised enrichment score": 0.037}
{"Change": "TSVRRALFTQGSD [G10Q]", "normalised enrichment score": 0.279}
{"Change": "TSVRRALLTGGSD [F8L]", "normalised enrichment score": 0.16}
{"Change": "TTVRRALFTGGSD [S2T]", "normalised enrichment score": 0.0348}
{"data": "Series 2", "Molecule": "B1 (IAA3)", "technique": "two-hybrid", "reading": "higher = firmer interaction", "B1": "IAA3 (Arabidopsis thaliana, UniProt Q38822); chain MDEFVNLKETELRLGLPGTDNVCEAKERVSCCNNNNKRVLSTDTEKEIESSSRKTETSPPRKAQIVGWPPVRSYRKNNIQSKKNESEHEGQGIYVKVSMDGAPYLRKIDLSCYKGYSELLKALEVMFKFSVGEYFERDGYKGSDFVPTYEDKDGDWMLIGDVPWEMFICTCKRLRIMKGSEAKGLGCGV"}
{"partner": "IAA12 (Arabidopsis thaliana, UniProt Q38830)", "baseline": "out of 4 tests", "positive tests": 4}
{"partner": "ARF9 519-638 (Arabidopsis thaliana, UniProt Q9XED8)", "setting": "weak activation fusion", "baseline": "out of 2 tests", "positive tests": 2}
{"partner": "ARF1 538-665 (Arabidopsis thaliana, UniProt Q8L7G0)", "baseline": "out of 4 tests", "positive tests": 0}
{"partner": "IAA28 (Arabidopsis thaliana, UniProt Q9XFM0)", "baseline": "out of 2 tests", "positive tests": 2}
{"partner": "IAA5 (Arabidopsis thaliana, UniProt P33078)", "baseline": "out of 4 tests", "positive tests": 4}
{"partner": "IAA7 (Arabidopsis thaliana, UniProt Q38825)", "baseline": "out of 4 tests", "positive tests": 1}
{"data": "Series 3", "Change": "E64P", "target": "ABI1, truncated, D143A, DHFR fusion (Arabidopsis thaliana)", "technique": "DHFR PCA, deep sequencing", "sample": "yeast", "setting": "methotrexate growth selection, single substitutions", "baseline": "wild-type fitted maximum", "reading": "higher = stronger binding", "starting sequence": "PYL1, truncated, DHFR fusion (Arabidopsis thaliana); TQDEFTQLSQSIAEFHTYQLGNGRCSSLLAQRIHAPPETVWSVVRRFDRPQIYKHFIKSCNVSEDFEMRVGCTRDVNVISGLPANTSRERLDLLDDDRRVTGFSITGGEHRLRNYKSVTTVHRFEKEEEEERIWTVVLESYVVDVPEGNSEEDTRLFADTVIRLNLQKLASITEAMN; partner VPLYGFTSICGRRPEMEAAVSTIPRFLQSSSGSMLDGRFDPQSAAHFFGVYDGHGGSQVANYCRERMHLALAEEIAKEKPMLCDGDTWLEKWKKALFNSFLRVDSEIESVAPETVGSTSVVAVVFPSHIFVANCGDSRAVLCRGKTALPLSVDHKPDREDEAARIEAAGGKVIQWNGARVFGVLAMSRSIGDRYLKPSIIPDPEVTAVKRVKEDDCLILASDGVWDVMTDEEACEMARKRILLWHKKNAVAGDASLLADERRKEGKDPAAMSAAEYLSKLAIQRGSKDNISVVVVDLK"}
{"together with": "(+)-ABA 4.8 µM", "relative binding score": "79.8%"}
{"together with": "(+)-ABA 0.39 µM", "relative binding score": "60.1%"}
{"together with": "(+)-ABA 200 µM", "relative binding score": "104%"}
{"together with": "(+)-ABA 1.4 µM", "relative binding score": "65.1%"}
{"together with": "(+)-ABA 17 µM", "relative binding score": "87.8%"}
{"together with": "(+)-ABA 58 µM", "relative binding score": "90.9%"}
{"data": "Series 4", "target": "Histone acetyltransferase KAT6A, winged helix 1, GST fusion (KAT6A, Homo sapiens, UniProt Q92794, residues 1-85)", "technique": "protein binding microarray", "molecule type": "double-stranded DNA, one strand shown", "sample": "in vitro", "concentration": "not given", "setting": "8-mer, flanks averaged, mean of 2 arrays, mostly near background", "baseline": "not given", "reading": "higher = stronger binding", "Residues (chain)": "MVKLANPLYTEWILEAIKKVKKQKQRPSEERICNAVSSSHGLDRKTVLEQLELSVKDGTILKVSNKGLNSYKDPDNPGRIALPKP"}
{"Strand": "GGCACATA", "E-score": 0.107}
{"Strand": "AATCGAGA", "E-score": -0.128}
{"Strand": "CACACCGC", "E-score": 0.158}
{"Strand": "AGTGTACG", "E-score": 0.163}
{"Strand": "ACCTACGG", "E-score": 0.253}
{"Strand": "ACACCCGT", "E-score": 0.141}
{"Strand": "GGTTTGAC", "E-score": 0.133}
{"Strand": "CGTTTATA", "E-score": 0.0747}
{"note": "Some of these lines once more (series 1):"}
{"Change": "TSVRRALFTQGSD [G10Q]", "normalised enrichment score": 0.279}
{"Change": "TSVRRALLTGGSD [F8L]", "normalised enrichment score": 0.16}
{"Change": "TTVRRALFTGGSD [S2T]", "normalised enrichment score": 0.0348}
